Measured values from different studies.
Numbered parts are unrelated; each lists some results of a single study. Positions count from the first letter of the parent shown.

Study 1 — technique: DHFR PCA, deep sequencing; sample: yeast; together with: (+)-ABA 0 µM; relative to: wild-type fitted maximum; reading: higher = stronger binding; measurement: relative binding score
Target: ABI1, truncated, D143A, DHFR fusion (Arabidopsis thaliana)
Notes: methotrexate growth selection, single substitutions
Starting sequence: PYL1, truncated, DHFR fusion (Arabidopsis thaliana); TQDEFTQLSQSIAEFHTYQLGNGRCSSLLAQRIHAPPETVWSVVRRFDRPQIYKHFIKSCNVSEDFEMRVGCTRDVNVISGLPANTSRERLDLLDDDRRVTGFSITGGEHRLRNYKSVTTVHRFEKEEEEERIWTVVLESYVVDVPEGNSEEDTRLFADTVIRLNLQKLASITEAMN; partner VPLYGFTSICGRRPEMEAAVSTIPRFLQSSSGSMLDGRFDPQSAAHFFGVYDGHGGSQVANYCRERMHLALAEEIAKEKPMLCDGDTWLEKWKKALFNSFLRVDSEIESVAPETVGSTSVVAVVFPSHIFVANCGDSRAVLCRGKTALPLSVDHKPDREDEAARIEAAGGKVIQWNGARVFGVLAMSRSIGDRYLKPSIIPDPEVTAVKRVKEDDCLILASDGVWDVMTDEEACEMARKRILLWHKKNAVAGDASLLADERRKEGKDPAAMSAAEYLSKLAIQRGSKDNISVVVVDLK
Variant = Y53T; result = -2.84%
Variant = S171C; result = 8.2%
Variant = H110I; result = -5.87%
Variant = L164C; result = 14.6%
Variant = K168T; result = 2.43%
Variant = E64V; result = 7.63%
Variant = E14H; result = 3.22%
Variant = D48V; result = 2.88%
Variant = R74H; result = 5.46%
Variant = T101F; result = 60.5%
Variant = V143R; result = -2%
Variant = L138V; result = 5.84%
Variant = A84R; result = 8.04%
Variant = M176V; result = 5.88%
Variant = E4C; result = 12.1%
Variant = E129S; result = 31.9%
Variant = G107P; result = -5.63%
Variant = Q10I; result = -1.23%
Variant = F5D; result = -2.5%
Variant = N165I; result = 0.153%
Variant = T135Y; result = -2.79%
Variant = Q51H; result = 17.2%

Study 2 — technique: universal PBM; molecule type: double-stranded DNA, one strand shown; sample: in vitro; tested at: not given; reading: higher = stronger binding; measurement: E-score
Target: Sal-like protein 4, full length isoform B (SALL4, Homo sapiens, UniProt Q9UJQ4-2, residues 1-616)
Notes: 8-mer, flanks averaged, mean of replicates
Target sequence (chain): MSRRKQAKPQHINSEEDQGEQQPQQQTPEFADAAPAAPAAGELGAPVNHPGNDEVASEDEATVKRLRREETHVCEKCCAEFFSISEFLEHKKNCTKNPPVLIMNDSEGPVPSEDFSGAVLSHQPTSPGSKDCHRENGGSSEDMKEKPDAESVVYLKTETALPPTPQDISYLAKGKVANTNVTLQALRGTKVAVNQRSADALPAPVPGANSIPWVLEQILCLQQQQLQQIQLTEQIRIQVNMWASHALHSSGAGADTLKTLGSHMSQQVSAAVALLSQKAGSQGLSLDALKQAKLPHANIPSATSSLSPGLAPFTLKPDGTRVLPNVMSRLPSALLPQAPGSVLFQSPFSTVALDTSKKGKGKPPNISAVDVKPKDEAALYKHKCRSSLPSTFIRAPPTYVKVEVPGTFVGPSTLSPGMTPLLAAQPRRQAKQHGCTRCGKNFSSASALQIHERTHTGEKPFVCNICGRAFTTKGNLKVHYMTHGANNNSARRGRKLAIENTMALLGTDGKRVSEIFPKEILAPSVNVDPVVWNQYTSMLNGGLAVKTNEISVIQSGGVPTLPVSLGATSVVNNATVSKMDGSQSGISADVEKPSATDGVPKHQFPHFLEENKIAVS
Oligonucleotide = AGTGTGCC; result = -0.148
Oligonucleotide = AGTCCCAC; result = -0.11
Oligonucleotide = ATTGCTCA; result = 0.173
Oligonucleotide = ACATTCGT; result = 0.203
Oligonucleotide = AAGATCCG; result = -0.2
Oligonucleotide = AGTCTCCC; result = -0.158
Oligonucleotide = GCAATTCA; result = 0.113
Oligonucleotide = TCGTACAA; result = 0.314
Oligonucleotide = CATGGATA; result = 0.192
Oligonucleotide = GCCTTGCC; result = -0.202
Oligonucleotide = ATCCGAGG; result = -0.161
Oligonucleotide = ATCGTACA; result = 0.258
Oligonucleotide = AGATAACG; result = 0.139
Oligonucleotide = GTGTAGAA; result = 0.101
Oligonucleotide = GCTCAGAA; result = -0.128
Oligonucleotide = ACAGTCCG; result = -0.0733
Oligonucleotide = CGACTGGA; result = -0.198
Oligonucleotide = CGATCCAA; result = -0.0233
Oligonucleotide = TTAAGCAA; result = 0.218
Oligonucleotide = TACGCCGA; result = -0.209
Oligonucleotide = AGCTAGTA; result = 0.0496

Study 3 — technique: RNA Bind-n-Seq; molecule type: RNA; sample: in vitro; tested at: 365 nM; relative to: no-protein control; reading: higher = stronger binding; measurement: RBNS enrichment (R)
Target: RNA binding protein fox-1 homolog 2, RRM domain, GST-SBP tag (RBFOX2, Homo sapiens, UniProt O43251-10, residues 100-194)
Notes: natural RNA segment, single round, ends assumed
Construct (chain): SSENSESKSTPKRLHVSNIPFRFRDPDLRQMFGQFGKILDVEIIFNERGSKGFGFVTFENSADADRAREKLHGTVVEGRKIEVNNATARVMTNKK
Oligonucleotide = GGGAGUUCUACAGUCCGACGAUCGCCUAGAGCAAGAAACCUGCUCAGUUUUAUAAGCUCCCUUCCCAACCAAAAUGGCUUAUCGUCAUUCAAAAAACCUGUGACAUAGGCAGGCCUUGGAAUUUUGCUCCUUUUGGAAUUCUCGGGUGCCAA; result = 0.587
Oligonucleotide = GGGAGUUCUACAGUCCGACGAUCUUUUUCUUUUGUAAAGGCAAUGAGCUAGUCCCAGAAAGGAUCCUUCAGUUACAUACAAUUUGUUUAAUGAAAUGUCAUGGCUCUGUUCAUAUUUUUGUCUUGUUCUUCCAUGGAAUUCUCGGGUGCCAA; result = 0.437
Oligonucleotide = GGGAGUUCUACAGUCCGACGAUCGGCGUGAGCCACCGCACCCGGCCUCAAAUGGAAAUAUUUCACAGAGGAGUGGUUCAGUUUAGCCCUGCAAGACAUCUAUAACUUGACUGUUUGCUAAACCACAACUCUUUUGGAAUUCUCGGGUGCCAA; result = 0.25
Oligonucleotide = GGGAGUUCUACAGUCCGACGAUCUUGGCUUUACCAUCUUAACUCAGCUGUGGGUUUUUUGUGGGUUCUUGUUUGUUUUUUGGCAUGAAUUGUCAUCUUUGGUGUUUUUUUAACCCCCAGCCCCUCAAAAAAAUUGGAAUUCUCGGGUGCCAA; result = 0.822
Oligonucleotide = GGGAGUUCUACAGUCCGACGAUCUCUACCCGCCUUUCCUGACUCUGUGUUUUAUAUAUAUUAUAUAUAAAUAUAUAUUGUGUACGGCCGCCGGCCGGCGGCUCGAGGCACGCCCGGUGGUGGGGGGUGGGCAGUGGAAUUCUCGGGUGCCAA; result = 0.63
Oligonucleotide = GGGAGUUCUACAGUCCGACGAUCAGUUUCCCUAGAUAUACUCCUGCCUCCAGGUGCUGGGACACACCUUUGCAAAAUGCUGUGGGAAGCAGGAGCUGGGGAGCUGUGUUAAGUCAAAGUAGAAACCCUCCAGUUGGAAUUCUCGGGUGCCAA; result = 0.503
Oligonucleotide = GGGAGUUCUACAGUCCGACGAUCAUCUGGCAGCCAGGCAGCCCCAGAAGAGAGACAUUCAGACAAAGGAAGUCUUCUGCUCACCCUUCCUUAAAGAUCAGAUAAACUUGUCAUCCCUUCCCAGCAAUGAUGACUGGAAUUCUCGGGUGCCAA; result = 0.697
Oligonucleotide = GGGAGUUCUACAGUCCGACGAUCUAAAUGCUAUUGCAUCAUAUAAUUUGCUAUUCAUCCACUAUGGCAUUGCAUAUCAAUCAGUUAAUACACUUAAUGUUGCAUGAGUGAUAUUUUGGUCUGGGUUUCCUCUUUGGAAUUCUCGGGUGCCAA; result = 0.657
Oligonucleotide = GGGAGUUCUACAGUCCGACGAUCGAGGCACAUAGGCUACCCAAGAGAGCCUUGGAUUCAGUGGUACACUCCUUGGGCCCAAGGGCUUUAGCAGCUGGAUAUGGGGUUCCUUGAUUUUCCUCUGGGCCCAAAUAUGGAAUUCUCGGGUGCCAA; result = 0.905
Oligonucleotide = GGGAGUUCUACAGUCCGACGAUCGGGAAUGCUUGACUCCACGCAUUGAGCCCCUCCUACACAUUGGUACAAGGUCGCUUAGGCCCCUCUAGUCAGGGAAGAUUUGGGGGUGACAGGCUCCUUAGUCCUCGACAUGGAAUUCUCGGGUGCCAA; result = 2.05
Oligonucleotide = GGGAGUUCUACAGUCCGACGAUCUUUGUGCUAAAACAUGGAAAAUUGUCACUGUGUUGAUGAGGUUUCCCCCAUUCUGCUGCCUUUGGGACACUGUUUUCGUUAAACUUGGUCUUGGCUGCAUUCUUUUUUUUUGGAAUUCUCGGGUGCCAA; result = 0.666
Oligonucleotide = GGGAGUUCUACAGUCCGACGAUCUGUUUUAGUGGGGAUAGUACCAUAUGUGAUAUAACCUAGAAGCACUUGUCUCUGCUCUUAUGAAACUUGCUUAUUCUUGAAAACCUUCUGCAUUUCCAUUUUUUCCUCUCUGGAAUUCUCGGGUGCCAA; result = 0.403

Study 4 — target: CCNB3, cyclin fold, Cln2 fusion (human); technique: yeast growth competition, sequencing; sample: yeast; notes: weak parent motif; relative to: not given; reading: higher = stronger binding; measurement: normalised enrichment score
Starting sequence: CDC25A docking peptide (human); PPHRRRLLFACSP; partner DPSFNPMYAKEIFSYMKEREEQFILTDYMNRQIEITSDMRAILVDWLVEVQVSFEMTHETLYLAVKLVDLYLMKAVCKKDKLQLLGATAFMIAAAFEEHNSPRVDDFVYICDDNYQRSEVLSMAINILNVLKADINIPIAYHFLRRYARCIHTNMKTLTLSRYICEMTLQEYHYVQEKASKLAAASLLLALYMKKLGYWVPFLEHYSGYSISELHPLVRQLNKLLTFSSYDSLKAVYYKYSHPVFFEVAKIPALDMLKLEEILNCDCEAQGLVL
Variant = R6H; result = 0.196
Variant = C11N; result = -0.0665
Variant = F9Q; result = -0.143
Variant = P1E; result = 0.244
Variant = H3Y; result = 0.389
Variant = C11Q; result = 0.563
Variant = P2M; result = 0.679
Variant = F9E; result = 0.295
Variant = R5V; result = 0.527
Variant = S12D; result = -0.105
Variant = R4Q; result = 0.409
Variant = L7W; result = 0.409
Variant = A10L; result = 0.0783
Variant = F9S; result = 0.395
Variant = R4L; result = 0.544
Variant = P1Y; result = 0.646
Variant = L8T; result = 0.214
Variant = R4F; result = 0.569
Variant = A10K; result = 0.00593
Variant = R5S; result = 0.155
Variant = P2F; result = 0.331
Variant = P1H; result = 0.344
Variant = A10F; result = 0.46
Variant = R4C; result = 1.23
Variant = R4W; result = 0.174

A few entries again (study 4):
Variant = R4Q; result = 0.409
Variant = L7W; result = 0.409
Variant = A10L; result = 0.0783
Variant = F9S; result = 0.395
Variant = R4L; result = 0.544
Variant = P1Y; result = 0.646
